Results from different studies.
Parts stem from different laboratories: compare values within a part only. Substitutions count along the parent as printed.

Sample 1 — method: DHFR PCA, deep sequencing; medium: yeast; together with: (+)-ABA 710 µM; relative to: wild-type fitted maximum; direction: higher = stronger binding
Target: ABI1, truncated, D143A, DHFR fusion (Arabidopsis thaliana)
Notes: methotrexate growth selection, single substitutions
Starting sequence: PYL1, truncated, DHFR fusion (Arabidopsis thaliana); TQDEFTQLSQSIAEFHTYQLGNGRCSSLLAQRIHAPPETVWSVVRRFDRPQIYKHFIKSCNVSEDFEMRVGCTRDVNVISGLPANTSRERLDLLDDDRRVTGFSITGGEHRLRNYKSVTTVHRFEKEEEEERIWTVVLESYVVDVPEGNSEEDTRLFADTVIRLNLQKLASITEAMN; partner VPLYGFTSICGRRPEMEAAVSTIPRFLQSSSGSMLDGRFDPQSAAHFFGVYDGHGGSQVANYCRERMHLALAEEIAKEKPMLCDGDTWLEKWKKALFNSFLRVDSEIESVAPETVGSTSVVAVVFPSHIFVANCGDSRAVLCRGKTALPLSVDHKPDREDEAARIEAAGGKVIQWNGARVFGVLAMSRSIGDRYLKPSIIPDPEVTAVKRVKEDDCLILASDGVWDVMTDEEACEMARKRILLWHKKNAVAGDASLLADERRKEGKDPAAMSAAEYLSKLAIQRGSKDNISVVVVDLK
For `V76H`, “relative binding score” read 28.4%.
`Y141L`: “relative binding score” -0.238%.
Under “relative binding score”, `R46S` is recorded as 95.9%.
`Q31F` — result for “relative binding score”: 73.5%.
Under “relative binding score”, `I52N` is recorded as 93.3%.
For `V44Q`, “relative binding score” read 12.9%.
`T160N`: “relative binding score” 94.9%.
Under “relative binding score”, `E131N` is recorded as 111%.
For `G81D`, “relative binding score” read 68.6%.
`F15L`: “relative binding score” 96.1%.
`E139A` — result for “relative binding score”: 87%.
`S150Q`: “relative binding score” 83.8%.
`R69Y` — result for “relative binding score”: 94.8%.
Under “relative binding score”, `Q19Y` is recorded as 97.7%.
Under “relative binding score”, `R155H` is recorded as 90.1%.
`F47K`: “relative binding score” -12.2%.
`T119Y` — result for “relative binding score”: -10.8%.
Under “relative binding score”, `W41V` is recorded as -13%.
`R24G`: “relative binding score” 86.6%.
Under “relative binding score”, `S117Q` is recorded as 81.1%.
For `V145T`, “relative binding score” read 94.8%.
`D95W` — result for “relative binding score”: 83.7%.
`V137L`: “relative binding score” 81.6%.
`C72T` — result for “relative binding score”: 94.2%.
For `H110W`, “relative binding score” read 28.6%.

Sample 2 — method: RNA Bind-n-Seq; molecule type: RNA; medium: in vitro; concentration: 365 nM; relative to: no-protein control; direction: higher = stronger binding
Target: RNA binding protein fox-1 homolog 2, RRM domain, GST-SBP tag (RBFOX2, Homo sapiens, UniProt O43251-10, residues 100-194)
Notes: natural RNA segment, single round, ends assumed
All sequences stand within: GGGAGUUCUACAGUCCGACGAUC … UGGAAUUCUCGGGUGCCAA
Construct (chain): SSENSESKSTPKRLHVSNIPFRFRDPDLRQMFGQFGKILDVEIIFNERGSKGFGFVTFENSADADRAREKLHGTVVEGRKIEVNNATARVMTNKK
`AUUUGGGUCCUCUCGGCCCCAACUGACCAGAGGCCAACUGUGUUCACAUUUAUUUUUCUUAAAGUACUUUUGUUCCAAAGGGGCCUUGUGGCGCCAGAGAGCUAGGAACU`: “RBNS enrichment (R)” 0.232.
For `GGGCCGCGAGAUCUAGCAUCUCUGAAAUCCUGGCUGUCGAGGCUUUGAAGCAUGUGUUACCUGGUUAAGCUUGUUUUCUCUUGCUUUAGGCAAAUAAAAGUUUAAAAAUC`, “RBNS enrichment (R)” read 2.58.
Under “RBNS enrichment (R)”, `AUGACGAUGAUGAUAGCAGUGACUAGGACACAUUUGGGAGUAUUUAAUCAGGUGUGGCUAUCUGAGAAAUCAACUUUGGGGGAAAUGUAAGAUUCUGAGCUCUCUCUCUG` is recorded as 1.38.
Under “RBNS enrichment (R)”, `UGUUUCAGGUUCACGUUCAGCUCUGACCUUGAGUUCAUUUCCAGUGCUUGCCUUCUCUCCAAGGCCAUGGCAUGAGUUCACAGAAUAUAUAUUUUCGGCAGAUUGAGCUU` is recorded as 0.345.
`UUCUUAACCUGGCUUAAAUCACCUUCAUUUUUCCAGUCAUCCUUAGAGCCGUCACCCUGUGUGAAGGUGCCUUACUUUGUAGGACAGGAUGUGGAUGUCAGUUUGUACAA`: “RBNS enrichment (R)” 0.278.
`UCCUUGUCCCCGCUUUCUUGGGGGCUUGCUACUUUUUGUCUUCUAUUGUGUGGCUUUCUGAGUAUUUGAACCCCAGUCCUGUGUCACCUUCCUUUUUCCUUCUAUGUCCC` — result for “RBNS enrichment (R)”: 1.27.
Under “RBNS enrichment (R)”, `CUCGACCCUGUUUCUUUCCAUUCAAGAACCGUCGGUCCCCUUGUAAUAAAGGUGGUAGAUUUCAUUAAGGUUUUAGAUCAAAACUUUGAAUAAAUCAAAAACGUUCAUUC` is recorded as 0.269.
`GGUGUUGGCCAGAAAAGUCCAGAUUCCUCUGGGAUCCCACCCUGGCCUCUCCUGGAACUCUGAACCUGCUGUGGAAGGAAUUGGCCAUGACCUUCACCUCUGGAGAGUAG`: “RBNS enrichment (R)” 0.266.
Under “RBNS enrichment (R)”, `UUUAUCCAUAUAACUUCUCUUCUGAAAACUGAGGAGUGUCCUCUGUUCUUCCAGUUCACGAGGGCAGGGGGUUUAAAACAAGAAUGAUAGGCCAGGAAGGCAGUGGGGAU` is recorded as 0.675.
Under “RBNS enrichment (R)”, `GGAGGACGAUGCAAAAACAUAUUUAUCUUAGUUUGCUCUGCUGUAGUUCUGUUAUUUAUACUUGGUGUUGCUUGUCAUGGACACCGGUGAACAUGCCGUAACUCUGUGAC` is recorded as 0.812.
For `CCCUAAGGACUGGACCUCCCGGCCCCUGUCAUGAUCAGGAACUCCAGUUCAUAAUUUAUAAAGAAGCAGUUUGUGUGUGUGUGGGUGUGUGUGUGCUCGCGAGCGCCAUC`, “RBNS enrichment (R)” read 0.654.
`AGACACCACUAGCUGGAUAUUUCACAGGCAUCUUUGAUUCAAUAUGUCCAAAGUGGAACUCUCCAUCUACCUCCCUCACAUGAACCUGUUCCUCUCUCAGGAUCUGUAUG`: “RBNS enrichment (R)” 0.398.

Sample 3 — method: protein-binding microarray; molecule type: double-stranded DNA, one strand shown; medium: in vitro; concentration: 250 nM; notes: 60-bp whole probe; together with: salmon DNA 0.4 mg/ml; relative to: random background probes; direction: higher = stronger binding; all sequences stand within: GCCTAGCAC … GTCTTGATTCGCTTGACGCTGCTG
Target: Interferon regulatory factor 5, full length, phosphomimetic (IRF5, Homo sapiens, UniProt Q13568-2, residues 1-514, K96S/S451D/S453D/S456D/S462D)
The log fluorescence of `CACATCTGCTGTGGGAGCACGTGCTAG` is reported as -0.361 z-score.
`GGCTTTGACTCTTTCTGTCAGTGCTAG` has a log fluorescence of 1.6 z-score.
`TCATTTTTCTGATCCATACTGTGCTAG` has a log fluorescence of 1.05 z-score.
For `GACGGTTTCGTTATCGGGACGTGCTAG`, the log fluorescence was 7.39 z-score.
With `TTAGGTCTCCTTCTCCTTTAGTGCTAG` the log fluorescence was -0.0412 z-score.
With `GACGGTATCCTTATCTTGACGTGCTAG` the log fluorescence was 0.174 z-score.
With `GATGGTTTCCTTCTCCTGACGTGCTAG` the log fluorescence was 1.13 z-score.
For `TCAATCATTGTTTTCAGTTTGTGCTAG`, the log fluorescence was 2.61 z-score.
With `GACGGACTGGTTCTCGGGACGTGCTAG` the log fluorescence was -0.514 z-score.
For `GACGGTTGCGACACTGGGGACGTGCTA`, the log fluorescence was -0.196 z-score.
The log fluorescence of `TAAGTTTCACTTTCCAAAGCGTGCTAG` is reported as 8.46 z-score.
For `GACGGTTTCCTACTGCTCACGTGCTAG`, the log fluorescence was 0.307 z-score.
`GACGATTTCGAGTATCGAGACGTGCTA` has a log fluorescence of 3.3 z-score.
`GACGATCTCAGGATCGAGACGTGCTAG` gave a log fluorescence of -0.37 z-score.
For `TAGCATGTAATTTGTTTGCAGTGCTAG`, the log fluorescence was 0.273 z-score.
The log fluorescence of `TTAGATATCAGATTCGATTAGTGCTAG` is reported as 1.33 z-score.
`GACGGACTGGGGTATCGGAACGTGCTA` has a log fluorescence of 0.101 z-score.
With `GAAGGTTTCGACACTGGGGACGTGCTA` the log fluorescence was 4.12 z-score.
`TTAGGACTGCTTCTACTTTAGTGCTAG` gave a log fluorescence of -0.209 z-score.
With `TTAGGTTCCCTTTTCCGTTAGTGCTAG` the log fluorescence was 0.723 z-score.
`TTATAACTGGGGTTTCGATTAGTGCTA` gave a log fluorescence of 6.18 z-score.
For `GACGGACTGCTCCTCCTGACGTGCTAG`, the log fluorescence was -0.632 z-score.

Sample 4 — method: RNA Bind-n-Seq; molecule type: RNA; medium: in vitro; concentration: not given; relative to: input RNA pool; direction: higher = stronger binding
Target: RING finger protein unkempt homolog, zinc fingers 1-6, GST-SBP tag (UNK, Homo sapiens, UniProt Q9C0B0, residues 30-357)
Notes: RNA with constant flanks, human and mouse sites, ends assumed
All sequences stand within: GGGAGUUCUACAGUCCGACGAUC … CAACAGAGGAUUGAGCAUCA
Construct (chain): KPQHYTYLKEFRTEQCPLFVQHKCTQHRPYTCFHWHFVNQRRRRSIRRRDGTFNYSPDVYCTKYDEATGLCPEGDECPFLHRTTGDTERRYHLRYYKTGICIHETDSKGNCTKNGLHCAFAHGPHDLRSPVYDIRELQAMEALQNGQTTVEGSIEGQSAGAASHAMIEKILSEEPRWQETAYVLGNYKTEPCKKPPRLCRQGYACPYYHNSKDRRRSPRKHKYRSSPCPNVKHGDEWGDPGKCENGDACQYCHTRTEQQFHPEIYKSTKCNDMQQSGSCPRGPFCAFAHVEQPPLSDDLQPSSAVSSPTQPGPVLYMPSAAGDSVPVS
`AUUACAGACAUUAUCAGUGGGCUUGGCAGUAACAAAUGGAUCCAGCAGAAUCUCCAGUGCCUGGUGCUGAAUUCAUUAACUCUCUCCCUCGAGGAUCCUUACGAGCGCUGCUUCAGCCGG` has a bound/input enrichment of 0.207 ratio.
`AAGGCUGGUUCAUUGUUUCUCAUCUAUGAGUACGUGUGACCUUUUCCCAAACCUUAUUGGAAACCUUAAGUAACCAGUGGCUAAACAGAAAAGCCGGUUGCCCAACUGCAUUAAUGAACU` gave a bound/input enrichment of 0.351 ratio.
For `AAGCUUCUUUGAGACUCAGUCAAGGUCAUCAUUUUGACACGCUUGGUCUCCAUUUUGACAUCCACGCAUAAAGAAGUGUGGUCCCCACCAAACAGGACCAAAGUUCCUGAAUGUAUGGGA`, the bound/input enrichment was 0.109 ratio.
`CAGACAAAUAAACUAGUAGAUGAUGGAAAAAAGAAACCAAGAGCAAAACAAAAAACAAAUGAGAAAGGUACAUCGAGAAAGCAUACAACACUUAAGGAUGAAAAAAUAAAAUCUCAGUCU` gave a bound/input enrichment of 0.668 ratio.
The bound/input enrichment of `AGAGAACAUGUGAGAAUUCACACGCAAGAGCAGCUCUAUAAAUGUGAACAAUGUGGGAAGGCUUUUACCUCUUCCAGAUCAUUCCGAGGUCAUUUGAGGACGCACACUGGAGAGAAGCCU` is reported as 0.177 ratio.
`ACUGAAGAAUCCAAAGCCCCAGUGUACACACAUCUCUUCUGACUCUUCCAGCAAGACGGCCCUGUUUUCCACUAUGCAAGAUCAGACAGAGGUCAGAGGUCAACUCCCAACCCACUUCCU` gave a bound/input enrichment of 0.135 ratio.
With `CCUGACAGUAUGCUGGCGCACAUGUUCAAGGACAAAGGUGUCUGGGGAAAUAAGCAAGAUCAUAGAGGAGCAUUCUUAAUUGACCGAAGUCCUGAGUACUUUGAACCUAUUUUGAACUAC` the bound/input enrichment was 0.267 ratio.
`UCAUUGUACUGCAAAAAUCAUCCUCGUUUUAAAUUAGCCACAGUGAUAACUAGUCUGCACUAGUAGAAUCAUUUACCUUUUAAAUUAUCUGCUUUGUCUGAUACCUGAAACACAUCAAAA` gave a bound/input enrichment of 5.95 ratio.
For `ACUAUCGUUCCUGGCUAUGAUUUCUUGGUGAAUUCUGUGUGGCCAGAAAUAGUUCGAGGCCUAGAGGAAAAGCUACCCUCGCUCUUCAACCCUGGGGACCCAGACGCCUUUCACCAGAAA`, the bound/input enrichment was 0.193 ratio.
The bound/input enrichment of `GAGAGAAUGUGUGUGUGUGUGUGUGUGCGCGUGCGUGAGAGGAUAAACUUUAACCUUCCCACUAGUUUAUUCUUUUACUUUAGUGUUUUCUUAGUUAGAAAACCACUAUUAACAUUAAAU` is reported as 2.38 ratio.
`UUGUCCCACGAGGAGCACCCCCACAGCCACCCUCUCUAUGGACAUGGCGUAUGCAAGUGGCCAGGCUGUGAGGCGGUUUGUGACGACUUCCCAGCCUUUCUAAAACAUCUCAACAGUGAG` gave a bound/input enrichment of 0.0662 ratio.
